# Experimental data from different studies.
# Each line is one published result; not all experiments were run side by side. Values joined by “and” are separate records of one study, mostly repeats; a detail may differ.
# Cell line: human red blood cells
SMILES,test,setting,how to read,measurement,value
CC[C@H](C)[C@H](NC(=O)[C@H](CCCNC(=N)N)NC(=O)[C@H](C)NC(=O)[C@@H](NC(=O)[C@H](CO)NC(=O)[C@@H](NC(=O)[C@@H](NC(=O)[C@H](CCC(N)=O)NC(=O)[C@H](CO)NC(=O)[C@@H](NC(=O)[C@@H](N)Cc1ccccc1)[C@@H](C)CC)[C@@H](C)CC)[C@@H](C)CC)[C@@H](C)O)C(N)=O,hemolysis,"1 h, 37 °C",,HC50,> 200 µM
CC[C@H](C)[C@H](NC(=O)[C@H](C)NC(=O)[C@H](CCCNC(=N)N)NC(=O)[C@H](CCCNC(=N)N)NC(=O)[C@H](CC(N)=O)NC(=O)[C@H](CCCNC(=N)N)NC(=O)[C@H](CCCNC(=N)N)NC(=O)[C@H](C)NC(=O)[C@@H](NC(=O)[C@H](CC(C)C)NC(=O)[C@@H](NC(=O)[C@@H](NC(=O)[C@H](CS)NC(=O)[C@H](CCCCN)NC(=O)[C@@H](N)CCCNC(=N)N)C(C)C)[C@@H](C)CC)C(C)C)C(=O)N[C@H](C(=O)N[C@H](C(=O)N[C@@H](CC(C)C)C(=O)N[C@@H](CS)C(=O)N[C@@H](CCCNC(=N)N)C(=O)O)[C@@H](C)CC)C(C)C,,"128 µg/mL, 3 h, 37 °C",baseline: Triton X-100,hemolysis,3.46%
CCCCCCCCCCCCCNCC(=O)N(CC(=O)N(CCCCN)CC(=O)N(CCN)CC(=O)N(CC(N)=O)C1CCCCC1)C1CCCCC1,hemolysis,1 h,,HC10,75 µg/mL
CC[C@H](C)[C@H](NC(=O)[C@H](CCCCN)NC(=O)[C@H](CC(C)C)NC(=O)[C@H](CC(C)C)NC(=O)[C@H](C)NC(=O)CNC(=O)[C@H](CC(C)C)NC(=O)[C@@H](N)Cc1ccccc1)C(=O)NCC(=O)N[C@@H](C)C(=O)N[C@@H](CCCCN)C(=O)N[C@@H](CC(C)C)C(=O)N[C@@H](CC(C)C)C(=O)N1CCC[C@H]1C(=O)N[C@@H](CO)C(=O)N[C@H](C(=O)N[C@H](C(=O)NCC(=O)N[C@@H](CC(C)C)C(=O)N[C@@H](Cc1ccccc1)C(=O)N[C@@H](CCCCN)C(=O)N[C@@H](CCCCN)C(=O)N[C@@H](CCCCN)C(=O)N[C@@H](CCC(N)=O)C(=O)N[C@@H](CCC(N)=O)C(=O)O)C(C)C)C(C)C,,1 h,,HC50,39.9 to 61.5 µM and 28 to 60 µM
CC[C@H](C)[C@H](NC(=O)[C@H](CCCNC(=N)N)NC(=O)[C@H](CC(C)C)NC(=O)[C@@H](NC(=O)[C@H](CO)NC(=O)[C@H](CC(C)C)NC(=O)[C@@H](NC(=O)[C@H](CCCCN)NC(=O)[C@H](CO)NC(=O)[C@H](CC(C)C)NC(=O)[C@@H](N)Cc1ccccc1)[C@@H](C)CC)[C@@H](C)O)C(=O)N[C@@H](CC(C)C)C(=O)N[C@@H](CC(C)C)C(N)=O,hemolysis,"1 h, 37 °C",,HC50,50 µM
CC[C@H](C)[C@H](NC(=O)[C@H](C)NC(=O)[C@H](CCCCN)NC(=O)[C@H](CO)NC(=O)[C@H](CCC(=O)O)NC(=O)[C@@H]1CCCN1C(C)=O)C(=O)N[C@@H](CCCCN)C(=O)N[C@@]1(C)CCCC=CCCC[C@@](C)(C(=O)N[C@H](C(=O)N[C@@H](CO)C(=O)N[C@@H](CCCCN)C(=O)N[C@@H](CCC(=O)O)C(=O)N[C@@H](CCCNC(=N)N)C(=O)N[C@@H](CO)C(=O)N[C@@H](CCCCN)C(=O)N[C@@H](CCCNC(=N)N)C(=O)N[C@@H](CO)C(=O)N2CCC[C@H]2C(N)=O)C(C)C)NC(=O)[C@H](CCCCN)NC(=O)[C@H](CC(C)C)NC(=O)[C@H](CC(C)C)NC1=O,,"200 µM, 1 h, 37 °C, 1% BSA",baseline: Triton X-100,hemolysis,< 5%
CC[C@H](C)[C@H](NC(=O)[C@H](CS)NC(=O)[C@H](CCCNC(=N)N)NC(=O)[C@H](CCCNC(=N)N)NC(=O)[C@H](CC(N)=O)NC(=O)[C@H](CCCNC(=N)N)NC(=O)[C@H](CS)NC(=O)[C@@H](NC(=O)[C@@H](NC(=O)[C@@H](NC(=O)[C@H](CS)NC(=O)[C@H](CCCCN)NC(=O)[C@@H](N)CCCNC(=N)N)C(C)C)[C@@H](C)CC)C(C)C)C(=O)N[C@H](C(=O)N[C@@H](CC(C)C)C(=O)N[C@@H](CS)C(=O)N[C@@H](CCCNC(=N)N)C(=O)O)[C@@H](C)CC,,"128 µg/mL, 3 h, 37 °C",baseline: Triton X-100,hemolysis,3.79%
CC[C@H](C)[C@H](NC(=O)[C@H](CCCNC(=N)N)NC(=O)[C@H](C)NC(=O)[C@@H](NC(=O)[C@H](CO)NC(=O)[C@@H](NC(=O)[C@@H](NC(=O)[C@H](CCC(N)=O)NC(=O)[C@H](CO)NC(=O)[C@@H](NC(=O)[C@@H](N)Cc1ccccc1)[C@@H](C)CC)[C@@H](C)CC)[C@@H](C)CC)[C@@H](C)O)C(=O)N[C@@H](CC(C)C)C(=O)N[C@@H](CC(C)C)C(N)=O,hemolysis,"1 h, 37 °C",,HC50,> 200 µM
CC[C@H](C)[C@H](NC(=O)[C@H](CCCCN)NC(=O)[C@@H](NC(=O)[C@H](CC(N)=O)NC(=O)[C@H](CCCNC(=N)N)NC(=O)[C@H](CCCNC(=N)N)NC(=O)[C@H](CC(N)=O)NC(=O)[C@H](CCCNC(=N)N)NC(=O)[C@H](CCCNC(=N)N)NC(=O)[C@@H](NC(=O)[C@H](CO)NC(=O)[C@@H](NC(=O)[C@H](CS)NC(=O)[C@H](CCCCN)NC(=O)[C@@H](N)CCCNC(=N)N)[C@@H](C)CC)C(C)C)[C@@H](C)CC)C(=O)N[C@@H](CS)C(=O)N[C@@H](CC(N)=O)C(=O)O,,"128 µg/mL, 3 h, 37 °C",baseline: Triton X-100,hemolysis,0.64%
C[C@H](NC(=O)[C@H](CCCCN)NC(=O)[C@H](Cc1ccc(O)cc1)NC(=O)[C@H](CCCCN)NC(=O)[C@H](CCCCN)NC(=O)[C@H](CCCCN)NC(=O)[C@H](Cc1ccc(O)cc1)NC(=O)[C@H](CCCNC(=N)N)NC(=O)[C@H](CCCCN)NC(=O)[C@@H](N)CCCCN)C(=O)N[C@@H](Cc1ccc(O)cc1)C(=O)N[C@@H](CCCCN)C(=O)N1CCC[C@H]1C(=O)N[C@@H](Cc1ccc(O)cc1)C(=O)N[C@@H](CCCCN)C(=O)N[C@@H](CCCCN)C(=O)N[C@@H](CCCCN)C(=O)N[C@@H](CCCCN)C(=O)N[C@@H](CCCCN)C(=O)N[C@@H](Cc1ccccc1)C(N)=O,,"24 h, pH 7.4, 37 °C, 0.25% v/v erythrocytes",,HC50,> 100 µM
